Results pooled from the literature.
A part holds a random share of what one study measured.

Set 1
Target: TAR DNA-binding protein 43, full length, His tag (TARDBP, Homo sapiens, UniProt Q13148, residues 1-414)
Method: RNA Bind-n-Seq
Form: RNA
Medium: in vitro
Concentration: 20 nM
Notes: 6-mer, flanks averaged, single round
With: 150 mM KCl
Relative to: input library
Reading: higher = stronger binding
Sequence	6-mer enrichment (R)
CAUGAU	0.638
AUCCGG	0.899
UCUGGC	0.772
AUACUC	0.549
UCAUGA	0.627
UCAUGC	0.621
AUUGAC	0.619
AGGGCA	2.38
UCUCGG	0.854
UCCGGG	1.79
AAGGAC	0.812
GUGACA	0.891
CACAUA	0.627
AGUGCC	0.823
GCCCCU	0.705
AUAUCA	0.562
CGAACU	0.64
CAUCAA	0.605
CGAUAC	0.61
ACUGUC	0.616

Set 2
Target: Histone acetyltransferase KAT6A, winged helix 2, GST fusion (KAT6A, Homo sapiens, UniProt Q92794, residues 85-181)
Method: protein binding microarray
Form: double-stranded DNA, one strand shown
Medium: in vitro
Concentration: not given
Notes: 8-mer, flanks averaged, mean of 2 arrays, mostly near background
Relative to: not given
Reading: higher = stronger binding
Residues (chain): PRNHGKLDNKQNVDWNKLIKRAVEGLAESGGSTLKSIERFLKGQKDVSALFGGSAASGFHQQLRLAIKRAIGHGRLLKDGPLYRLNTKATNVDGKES
Sequence	E-score
ACATTCCC	0.0803
AACTTGAC	0.00543
ATTGTGGG	0.00741
ACGCTGGA	0.146
GAGATGCC	-0.134
CTGCAATC	-0.00261
ACACCCGC	0.00788
ACTACTTG	-0.11
CAGCTGAA	-0.0877
ATGGCCAG	-0.00757
CGCACAAG	0.0618
GTTAAGTA	-0.0436
CTCTGAAC	0.0491
CTCCGCGA	0.12
ATATTGCG	-0.0615
AACGCGCA	0.137
AGCGACCG	0.147
AAACTAGG	0.0091
ACCAACTC	-0.0908
ATAACTAC	-0.0454
ACCGCCCC	0.198
GATTAAGA	-0.0622
GTGATTCA	-0.146
GCTACAAC	-0.0063
ATAGACGG	0.0607

Set 3
Target: Fragile X messenger ribonucleoprotein 1, C-terminal low-complexity region (Fmr1, Mus musculus, UniProt P35922)
Method: RNA Bind-n-Seq
Form: RNA
Medium: in vitro
Concentration: 200 nM
Notes: whole 134-nt RNA, ends assumed
With: 150 mM LiCl
Relative to: input library
Reading: higher = stronger binding
Each molecule: 7-deaza-guanosine replaces G
Shared flanks, not repeated: GGGAGUUCUACAGUCCGACGAUC … UGGAAUUCUCGGGUGUCAAGG
Sequence	log2 enrichment
AAGUCCUGUGCUACACAUCGUAUGUACCGAAUCGGAAAAAAAGGUUUGGUUUUUGGAAAGUAUUAUGUUACGCCGUUCGGAUCUGCACUU	-2.88
GCAGGAAGUAAAAACAAAUGGAAAUGCUUCGGAUAGUGGCAGGGGUGGGGGUUGCUAAGGAAAGGGUGGGAUGGGAGUGGCUAAAGAGUU	1.3
CUGUGCUACACAUCGUAUGUACCGAAUCGGGGUUUUUUUGGUUUUUUUGGUUUUUUUGGGGAAAGUAUUAUGUUACGCCGUUCGGAUCUG	0.404
UUCUCUAAGAGGAACUCCGGCGCGUCAGAGUAACAGAAGCGAGAGCACAGACAGUCUUGGGGGCUUGUCUCCCUCUGAAGUCACAGCCAU	0.245
GCUUUGCCUUCACUUAUUUCUUUGCUUUUUAAAAACUAUUUGUAAUGUAAUUUUAAUGCAUUUUUUACAGGCCCAGUAAUGGUUAAAUAC	0.533
CAAGUCCUGUGCUACACAUCGUAUGUACCGAAUCGGGUUUGGGGUUUGGGGUUUGGAAAGUAUUAUGUUACGCCGUUCGGAUCUGCACUU	-1.89
CUCAAGUCCUGUGCUACACAUCGUAUGUACCGAAUCGGGGCCGGCCGGCCGGGGAAAGUAUUAUGUUACGCCGUUCGGAUCUGCACUUCC	0.973
CACAGACAACACCCACCCACACAGACACAGAGGGAAGGGGUUGGGAUGGGGACAGGGUGCACAGCAGGGCGGGGUAGGACCCCAGCCCCU	-0.696
GUCCUGUGCUACACAUCGUAUGUACCGAAUCGGGAAAAAAAGGGAAAAAAAGGGAGGGAAAGUAUUAUGUUACGCCGUUCGGAUCUGCAC	0.271
ACCAUGCAAAUGGGCAUCUUUGGGAAGUGGGGCAAGGGGGGGAUAGGGAGGGGGGUAACACUUUGGGAACAGGUGGUCCCAGGUCGUUUC	1.18
UCCUGUGCUACACAUCGUAUGUACCGAAUCGGUUUUUGGGGUUUUUGGGGUUUUUGGGGAAAGUAUUAUGUUACGCCGUUCGGAUCUGCA	-0.845

Set 4
Target: Prothrombin, mature alpha-thrombin (F2, Homo sapiens, UniProt P00734)
Method: aptamer microarray, sandwich
Form: DNA with 2'F-ANA
Medium: in vitro
Concentration: 200 nM
Notes: whole 15-mer aptamer, many near background
With: Cy3 exosite-II aptamer, 400 nM
Reading: higher = stronger binding
Sequence: GGTTGGTGTGGTTGG
Modification	mean fluorescence intensity
2'F-ANA at 2 4 5 8 9 11 15	82.6 a.u.
2'F-ANA at 1 3 5 6 7 8 9 10 11 13 14	47.1 a.u.
2'F-ANA at 1 3 6 9 11 13 15	190 a.u.
2'F-ANA at 2 5 6 7 8 10	47.5 a.u.
2'F-ANA at 2 3 5 6 8 9 10 13 14 15	50.2 a.u.
2'F-ANA at 1 3 6 7 11 14 15	105 a.u.
2'F-ANA at 1 4 5 8 9 12 13 14 15	45.5 a.u.
2'F-ANA at 2 5 6 7 8 9 10 11 12 13 15	55.9 a.u.
2'F-ANA at 4 7 8 10 11 12 14	72.7 a.u.
2'F-ANA at 1 2 4 6 8 14 15	64.1 a.u.
2'F-ANA at 2 3 4 5 14	50.4 a.u.
2'F-ANA at 1 5 6 7 8 9 11 12	104 a.u.
2'F-ANA at 1 2 5 7 9 10 11 15	76.7 a.u.
2'F-ANA at 3 4 5 6 8 12 14	54.1 a.u.
2'F-ANA at 1 5 7 8 10 11 14	42.3 a.u.
2'F-ANA at 6 7 13	382 a.u.
2'F-ANA at 1 2 3 6 8 9 11 14 15	73.3 a.u.
2'F-ANA at 1 2 5 11 12	87.3 a.u.
2'F-ANA at 2 3 4 5 8 10 11 13 14	49.9 a.u.

Set 5
Target: RING finger protein unkempt homolog, zinc fingers 1-6, SBP tag (UNK, Homo sapiens, UniProt Q9C0B0, residues 30-357)
Sequence of UniProt Q9C0B0 (30-357, looked up): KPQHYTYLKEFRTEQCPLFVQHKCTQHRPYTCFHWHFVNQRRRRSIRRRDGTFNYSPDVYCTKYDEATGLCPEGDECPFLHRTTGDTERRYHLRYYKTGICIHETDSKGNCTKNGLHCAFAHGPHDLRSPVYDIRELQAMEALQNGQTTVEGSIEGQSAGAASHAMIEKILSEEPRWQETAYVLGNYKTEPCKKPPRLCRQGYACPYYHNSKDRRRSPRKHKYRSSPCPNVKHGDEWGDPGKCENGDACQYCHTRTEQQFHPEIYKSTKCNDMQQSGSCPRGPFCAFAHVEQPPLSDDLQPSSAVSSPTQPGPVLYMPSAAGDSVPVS
Method: RNA Bind-n-Seq
Form: RNA
Medium: in vitro
Concentration: 100 nM
Notes: RNA with constant flanks, vertebrate orthologous sites, ends assumed
Relative to: input RNA pool
Reading: higher = stronger binding
Shared flanks, not repeated: GGGAGUUCUACAGUCCGACGAUC … CAACAGAGGAUUGAGCAUCA
Sequence	bound/input enrichment
UGUCUGCCUCAUUCUGAAAUUUACACAGUAGACCAUUUGUCAUUCAUGCUGUCCCACAAAUAGUUUUUUGUUUACGAUUUAUGACAGGUUUAUGUUACUUCUAUUUGAAUUUCUAUAUUU	0.983 ratio
CUCUUUUCCAGGUUGGAUGUACUGGAAAAGUCAUAGGAAUUGAUCACAUUAAAGAGCUAGUGGAUGACUCAAUAAAUAAUGUCAGGAAGGACGAUCCAACACUUCUGUCUUCAGGGAGAG	0.645 ratio
UAAUUUCAGGAUGAAGCUCUUACAUGAGGUGGCACGAGUCUGGAAAACAGAUGGGUUAACUAGUUGUUCUUAUAAAUUACUGUCUGUGGAACACAAUCCUUUAUAUAUCAACAUCACAGU	1.06 ratio
CCUCCCCACCACCCCUAAAAUAGAACUUUGAAAACUGUUUUGCCACCACUUCAAAAGAUUUAGCAAUAUUAGAAUAAAACACGAAUGAAGUAAGAAAUUUUGCUCAUUGUUUUGCAAGCC	3.23 ratio
AAGGAUCAAAAGUUCAAGACCAUUCUCGGCUACAUCCCAAGUUUGAGGCCAGCUUCAGCUACAUGAGACCGGGAUAGGGUGGGCAGGGAAGGACAACAUGUAGAUCAUUGAAGCUCAGAA	1.33 ratio
AGAUCGCCUAGGUAGGGGUGAGCAUUAACCUAGGAAGAAAUGAAAUGCUAAAAAUCAUACUAGUGCUAACUUUAGUUGGGGAAUUUAAAUAGACCGCUUUUACAUCAUUUGAAAAUGAAG	0.978 ratio
CUGUUGUCAAGCACUGUGUUCCAGACCGUGUCUGACUGUAGUGUAACCUAGGAGACUUUAUAGUUUUGUUUUAUUGAAACCCGCGUGCCGCAGAGCCCGGGAGGGCAGUGUCUCCGUGUG	1.24 ratio
UAAUCACUCUAAUUGUAAUCUGAAUAAAGUGUAACAUUGUGUAGCCUUUUUUGUAUAAAAUAGACAAAUAGAAAUGGUCCAAUUAGUUUCCUUUUUAAUAUGCUUAAAAUAAGCAGGUGG	1.67 ratio
CCUCCCCGUUAUCCCUGAAGUAGAACUUUUUAAAAUGUGUUGCCACCACUUCUAAAAAUUUAGCAAUAUCACAAUCAGACAAUAACGAAGUAAGAAAUGUUACUCAUUGUUUUGCAACCA	1.52 ratio
AGAGUUGGAAGAAUAGCAUAGGAAUUUGUCAGAAAAGUUAGAGGAGCAUUUGGGGAGGGAAGUUAACAAAUAUCAAGAGCCCAAUGGAUAAGAAGUAGAGAUGAAGGUCAUUGAAACUCA	0.695 ratio
CUACUAUAAACAACUCAGGGCAGUAUUCUCGUUACCCUUACAGUAACCUAAAUCAGGGAUUAGUAAAUAAUACAGGGAUGAAUCAGAAUUUAGGCCUUACAAAUAACACUCCAAUGAAUC	1.14 ratio

For quick reference, copied from above (set 2):
Sequence	E-score
AACTTGAC	0.00543
GCTACAAC	-0.0063
ACTACTTG	-0.11
GTGATTCA	-0.146
CTGCAATC	-0.00261
AGCGACCG	0.147
AAACTAGG	0.0091
ACATTCCC	0.0803
GAGATGCC	-0.134
